Measured values from different studies.
Each numbered part is a random draw from the data of one study; scales do not carry over between parts. Substitutions count along the parent as printed.

Set 1
Target: RING finger protein unkempt homolog, zinc fingers 1-6, GST-SBP tag (UNK, Homo sapiens, UniProt Q9C0B0, residues 30-357)
Method: RNA Bind-n-Seq
Molecule type: RNA
Medium: in vitro
Concentration: not given
Setting: RNA with constant flanks, human and mouse sites, ends assumed
Baseline: input RNA pool
Direction: higher = stronger binding
Shared flanks, not repeated: GGGAGUUCUACAGUCCGACGAUC … CAACAGAGGAUUGAGCAUCA
Construct (chain): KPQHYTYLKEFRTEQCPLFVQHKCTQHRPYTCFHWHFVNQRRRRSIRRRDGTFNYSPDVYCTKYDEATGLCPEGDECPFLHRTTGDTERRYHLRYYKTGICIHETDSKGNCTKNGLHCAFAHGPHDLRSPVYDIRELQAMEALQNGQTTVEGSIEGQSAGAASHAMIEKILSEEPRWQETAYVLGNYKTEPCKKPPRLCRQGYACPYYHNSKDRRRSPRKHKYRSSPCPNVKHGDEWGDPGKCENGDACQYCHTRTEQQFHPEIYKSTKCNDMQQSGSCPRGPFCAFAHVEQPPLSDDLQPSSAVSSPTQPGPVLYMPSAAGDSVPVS
`GAUGCAAGAAAGAAACUGAUCCUGAGAAUGAAAAGCUUCAGAAAAUAGAAUUCCAAGAUCAACAGCCUUAGAAGGGACCAGGAAAAGAAUCUUUUAAAAUAGAUUUCUAAGAGAUGCCUA` has a bound/input enrichment of 0.872 ratio.
The bound/input enrichment of `CACGGCUGAUUCGCUCAUCGGAAGAGCUGCACACAUAGCUGUUCUUGAUUCUGAGAUAUUUUUAGAGAAGUUUUUCCUGGUUGCCGCCCUCAAAUAUUUUCAGUAGGACCGAAGCAUCAU` is reported as 1.07 ratio.
For `GCAUAUGGUUAUCGAGGAAAGGACUGUAGAGCUAAUGUUUACCUUCUUCCGACCGGGAAAAUAGUUUAUUUCAUUGCAUCAGUAGUAGUACUAUUUAAUUAUGAGGAGAGAACUCAGCGA`, the bound/input enrichment was 3.35 ratio.
With `CACAUCAAAUAUGCUGUCACCACUGGGGACCACGGGAUCAUUCGAACUCUGGAUUUACCCAUCUAUGUCACACGGGUGAAGGGCAACAAUGUAUACUGCCUAGACAGGGAGUGUCGUCCC` the bound/input enrichment was 0.122 ratio.
`GCUGCACUCCGUAACUCAACAUGGCAUGCCUUUCUCUCCGUAAACUAUUUAGUGAGAUUUUUAGGGACUAUUUUUCAGUAUCUCUGUACCUGUUAAAGGGGGUGCUUUUCGAUCUAAAAA` has a bound/input enrichment of 0.593 ratio.
`GAUGUGGGAGCCGCCGCCGCCACCGCGCACAACGGCUUCUCCUGCAGCAACUGCAGCAUGCUGUCCGAGCGCAAGGACGUGCUCACGGCGCACCCCGCGGCCCCCGGGCCCGUGUCGAGA` gave a bound/input enrichment of 0.0848 ratio.
The bound/input enrichment of `GAGGUAUUGGAAGCCUUGUAUGAUGGUAGCCUAGGAGACUGUAAAGAAGCUGCUGAAAUUUAUAGAGCAAAUUGUCAUAAGCUUUUCCCUUAUGCUUUGGCUUUCAUGCCUCCUGGAUAU` is reported as 0.268 ratio.
`ACUUUCUGCGGGUGGGGGUCACUUUGUGUGCGUGGACUGUGGGAAGAGGUUCAGCUGGUGGUCGUCCCUGAAGAUUCACCAGCGCACACACACAGGUGAGAAGCCUUACCUCUGUGGCAA` gave a bound/input enrichment of 0.251 ratio.
`AAAACACUUUUUUAUAAUAUUUUCUCACUGAGACUCCCAGGGCUUUUACUAUCUCCAGAAUGUAUUUUUCCUUUUUCCGUAAGACUCAAAAGUAAUAUAAGGUCUACAAAAUCUACUAAA` gave a bound/input enrichment of 0.455 ratio.
The bound/input enrichment of `AUUUUUGCAAGUUUGGCUUUAUAUGAUGUCAAGGAGAAGAAAAAGAUUUCCGAGAAUUUUUAUUUCGACCUUAAUUCAGAGCAGAUGAAGGGACUGUUACGACCGCAUGUGCCCCCUGCU` is reported as 0.16 ratio.
`CCAGACUCUACAACUGGAUUUCCUGAUGAAGAUCUUGCCCAAUUACCACCACCUGAAGAAGACGAUGAAAGGCAGCUCAACCCCAGUUAAGAACUGAGAAGAUGUCAGUGGUGCUCGGUU` gave a bound/input enrichment of 0.412 ratio.

Set 2
Target: Transcriptional repressor CTCF (CTCF, Homo sapiens, UniProt P49711, residues 1-727, full length assumed)
Method: protein-binding microarray
Molecule type: double-stranded DNA, one strand shown
Medium: in vitro
Concentration: not given
Setting: k-mer, scored over probes, only values ≥0.25
Direction: higher = stronger binding
Target sequence (chain): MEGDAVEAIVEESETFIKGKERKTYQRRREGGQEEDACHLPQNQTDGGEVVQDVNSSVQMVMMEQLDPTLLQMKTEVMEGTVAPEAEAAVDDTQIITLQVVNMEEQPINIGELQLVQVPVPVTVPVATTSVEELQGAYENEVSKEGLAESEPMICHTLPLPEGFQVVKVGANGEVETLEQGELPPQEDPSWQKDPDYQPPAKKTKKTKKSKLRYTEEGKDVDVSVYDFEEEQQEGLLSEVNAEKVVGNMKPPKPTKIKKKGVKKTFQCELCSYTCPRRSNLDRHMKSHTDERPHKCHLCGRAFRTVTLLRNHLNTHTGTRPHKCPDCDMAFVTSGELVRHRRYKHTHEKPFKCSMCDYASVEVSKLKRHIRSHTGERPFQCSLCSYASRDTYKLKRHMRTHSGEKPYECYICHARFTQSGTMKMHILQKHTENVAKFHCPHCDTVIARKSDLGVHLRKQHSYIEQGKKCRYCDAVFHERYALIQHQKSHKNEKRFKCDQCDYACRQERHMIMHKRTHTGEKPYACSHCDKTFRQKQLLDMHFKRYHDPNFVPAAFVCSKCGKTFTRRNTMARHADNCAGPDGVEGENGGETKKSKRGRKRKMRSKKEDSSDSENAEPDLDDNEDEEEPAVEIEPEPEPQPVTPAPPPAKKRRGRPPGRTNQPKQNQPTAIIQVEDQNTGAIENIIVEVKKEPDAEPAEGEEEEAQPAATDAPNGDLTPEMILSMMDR
`CGTGTATA` gave an E-score of 0.295.
The E-score of `GATGTATA` is reported as 0.264.
With `AAATTACC` the E-score was 0.29.
With `ATACACAG` the E-score was 0.292.
`TCGCGCAA` gave an E-score of 0.34.
With `ATAATGGC` the E-score was 0.253.
The E-score of `ATGTTTTG` is reported as 0.27.
With `ATACGTAT` the E-score was 0.405.
For `AAAAGCGC`, the E-score was 0.293.
For `CTCTTATA`, the E-score was 0.325.
`ATGCGCCG` has an E-score of 0.285.
`GTTATACA` gave an E-score of 0.294.
`TCGCGCGA` gave an E-score of 0.268.

Set 3
Target: CCNF, cyclin fold, Cln2 fusion (human)
Method: yeast growth competition, sequencing
Medium: yeast
Setting: strong parent motif
Baseline: not given
Direction: higher = stronger binding
Parent: E2F1 docking peptide (human); PPVKRRLDLETDH; partner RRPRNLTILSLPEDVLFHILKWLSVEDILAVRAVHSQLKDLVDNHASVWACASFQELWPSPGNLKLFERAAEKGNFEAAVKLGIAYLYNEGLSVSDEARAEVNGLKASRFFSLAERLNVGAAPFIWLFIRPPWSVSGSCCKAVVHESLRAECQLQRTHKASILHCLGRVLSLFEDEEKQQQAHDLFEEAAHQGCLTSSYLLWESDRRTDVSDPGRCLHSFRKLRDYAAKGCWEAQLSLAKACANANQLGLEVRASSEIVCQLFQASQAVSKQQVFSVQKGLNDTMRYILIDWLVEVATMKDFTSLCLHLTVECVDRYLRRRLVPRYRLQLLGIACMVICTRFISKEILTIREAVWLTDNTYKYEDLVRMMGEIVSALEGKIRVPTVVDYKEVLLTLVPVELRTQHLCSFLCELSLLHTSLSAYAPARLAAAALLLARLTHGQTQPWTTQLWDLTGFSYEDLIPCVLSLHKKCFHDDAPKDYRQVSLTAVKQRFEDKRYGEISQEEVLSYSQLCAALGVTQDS
For `PPVKRRLDLECDH [T11C]`, “normalised enrichment score” read 6.23.
`PPPKRRLDLETDH [V3P]`: “normalised enrichment score” 5.48.
`PCVKRRLDLETDH [P2C]`: “normalised enrichment score” 5.89.
`PPVKRRLDLEPDH [T11P]` — result for “normalised enrichment score”: 8.93.
For `PPVKQRLDLETDH [R5Q]`, “normalised enrichment score” read 0.362.
For `PPVKRRLDLETTH [D12T]`, “normalised enrichment score” read 6.18.
`PPVKRRLDLETDL [H13L]` — result for “normalised enrichment score”: 7.03.
For `PPVKRRLDLETRH [D12R]`, “normalised enrichment score” read 5.2.
`HPVKRRLDLETDH [P1H]`: “normalised enrichment score” 7.
`PPAKRRLDLETDH [V3A]`: “normalised enrichment score” 7.01.
`PDVKRRLDLETDH [P2D]`: “normalised enrichment score” 5.47.
Under “normalised enrichment score”, `PPVKRRLDLETDE [H13E]` is recorded as 6.8.
Under “normalised enrichment score”, `PPVLRRLDLETDH [K4L]` is recorded as 1.4.

Single results of other studies
`PhoQ, residues 284 288 289 292 302 303 SLKLQV` has a fold induction of 8.37 (PhoP, residues 12 14 15 18 19 HHYTI (Escherichia coli, UniProt P23836); Sort-seq, item: YFP reporter; E. coli; PhoQ-PhoP variant library, added: 10 µM Mg2+; baseline: high Mg2+ state, higher = stronger signaling).
